Measured values of several laboratories.
Protocols differ between the studies behind these lines. ± gives the spread as reported. ≈ marks a conversion by molar mass, not a printed value.
Chain of UniProt Q9HCP0 (whole entry, looked up): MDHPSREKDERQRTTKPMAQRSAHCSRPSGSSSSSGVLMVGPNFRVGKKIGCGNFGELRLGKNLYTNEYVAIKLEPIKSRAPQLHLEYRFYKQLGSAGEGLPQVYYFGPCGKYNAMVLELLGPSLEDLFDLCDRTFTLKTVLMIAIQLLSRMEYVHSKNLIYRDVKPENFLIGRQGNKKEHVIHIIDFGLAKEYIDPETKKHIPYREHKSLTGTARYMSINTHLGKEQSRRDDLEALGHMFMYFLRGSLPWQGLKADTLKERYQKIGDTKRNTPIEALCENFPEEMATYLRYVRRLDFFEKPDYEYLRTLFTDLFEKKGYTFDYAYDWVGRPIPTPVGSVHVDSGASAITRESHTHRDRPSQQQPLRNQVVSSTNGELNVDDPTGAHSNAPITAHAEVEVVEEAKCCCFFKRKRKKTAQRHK
Chain of UniProt Q8N4C8 (whole entry, looked up): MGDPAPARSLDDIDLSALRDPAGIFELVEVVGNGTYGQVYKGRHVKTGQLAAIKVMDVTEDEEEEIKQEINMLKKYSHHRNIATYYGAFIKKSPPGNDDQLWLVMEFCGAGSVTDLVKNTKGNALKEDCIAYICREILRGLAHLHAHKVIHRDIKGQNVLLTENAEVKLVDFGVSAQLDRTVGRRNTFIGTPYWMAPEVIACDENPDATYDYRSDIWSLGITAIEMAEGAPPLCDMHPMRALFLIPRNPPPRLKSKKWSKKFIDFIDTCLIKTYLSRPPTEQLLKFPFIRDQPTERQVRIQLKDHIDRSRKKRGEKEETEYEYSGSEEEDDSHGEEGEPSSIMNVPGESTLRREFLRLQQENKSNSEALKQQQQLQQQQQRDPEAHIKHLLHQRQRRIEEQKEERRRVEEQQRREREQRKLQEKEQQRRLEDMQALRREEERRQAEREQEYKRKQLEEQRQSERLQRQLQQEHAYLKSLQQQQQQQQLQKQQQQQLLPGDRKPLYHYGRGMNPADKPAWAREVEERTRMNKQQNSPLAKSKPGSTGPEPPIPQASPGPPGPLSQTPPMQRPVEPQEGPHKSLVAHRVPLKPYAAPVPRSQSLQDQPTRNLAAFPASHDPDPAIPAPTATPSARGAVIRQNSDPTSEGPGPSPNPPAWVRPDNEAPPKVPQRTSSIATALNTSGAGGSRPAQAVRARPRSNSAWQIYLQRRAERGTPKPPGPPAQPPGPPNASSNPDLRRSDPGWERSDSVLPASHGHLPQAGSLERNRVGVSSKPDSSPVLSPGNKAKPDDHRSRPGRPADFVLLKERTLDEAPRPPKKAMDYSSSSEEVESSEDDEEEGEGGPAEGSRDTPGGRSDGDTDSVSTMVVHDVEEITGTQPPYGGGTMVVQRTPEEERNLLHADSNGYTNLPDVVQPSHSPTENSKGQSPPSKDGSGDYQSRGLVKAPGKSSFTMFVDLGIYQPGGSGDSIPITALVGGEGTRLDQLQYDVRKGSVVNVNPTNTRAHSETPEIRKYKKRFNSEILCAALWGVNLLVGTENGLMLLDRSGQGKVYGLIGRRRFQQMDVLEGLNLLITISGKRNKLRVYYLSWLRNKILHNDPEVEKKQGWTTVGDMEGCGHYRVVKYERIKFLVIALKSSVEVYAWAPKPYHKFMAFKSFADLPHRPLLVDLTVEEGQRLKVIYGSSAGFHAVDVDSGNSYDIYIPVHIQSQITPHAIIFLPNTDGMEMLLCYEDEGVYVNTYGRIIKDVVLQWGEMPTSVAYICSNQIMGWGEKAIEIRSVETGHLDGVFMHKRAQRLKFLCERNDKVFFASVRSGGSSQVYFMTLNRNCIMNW

`CC(C)C[C@H](NC(=O)[C@H](CC(C)C)NC(=O)[C@H](CCCCN)NC(=O)[C@H](Cc1ccccc1)NC(=O)[C@@H](NC(=O)[C@H](CCCNC(=N)N)NC(=O)[C@@H](N)CCCCN)C(C)C)C(=O)N[C@@H](CCCCN)C(=O)N[C@@H](CCCNC(=N)N)C(=O)N[C@@H](Cc1ccc(O)cc1)C(=O)N[C@@H](Cc1c[nH]c2ccccc12)C(=O)N[C@@H](CCCNC(=N)N)C(=O)N[C@@H](CCC(N)=O)C(=O)N[C@@H](CC(C)C)C(=O)N[C@@H](CCCCN)C(=O)N[C@@H](CCCCN)C(=O)N1CCC[C@H]1C(=O)N[C@H](C(=O)N[C@@H](CCCNC(=N)N)C(=O)NCCOCCOCC(=O)O)C(C)C` gave an MIC increase of 10 fold (Staphylococcus aureus; 6 h, 37 °C, serum stability, with: 50% human serum; relative to: without serum).
With `Cc1cc(/C=C/C#N)cc(C)c1Oc1nc(NC2CCN(Cc3ccc(S(C)(=O)=O)cc3)CC2)nc2ncccc12` the selectivity index was 64 (HIV-1; MTT; MT4, RT L100I/V179D/Y181C mutant; relative to: CC50 over EC50).
For `COc1ccccc1-c1n[nH]c2nc(NC3CCN(C(=O)Cc4ccc(F)cc4F)CC3)ncc12`, the relative abundance was 1.12 (bead binding, competition bead pull-down, item: LINJ.35.3130; Leishmania donovani extract; 10 µM; relative to: vehicle).
For `Cc1nc2cccc(OCC(C)(C)C(=O)NC(C)C)c2c(N)c1C(=O)[O-].[Na+]`, “revertant colonies per plate” read 116 ± 3 (Salmonella typhimurium; TA100; 0.80 mg per plate, with S9, preincubation).
For `O=C1NC2(CC2)COc2ncc(F)cc2[C@H]2COCCN2c2ccn3ncc1c3n2`, the serum triglycerides was 0.34 ± 0.12 mmol/L (Sprague-Dawley rat, female, serum; oral, 2.5 mg/kg/day, end of recovery, 4-week subacute toxicity).
With `O=C(Oc1cc(OC(=O)c2cc(O)c(O)c(O)c2)c2ccccc2c1)c1cc(O)c(O)c(O)c1` the therapeutic index was 45.1 (Herpes simplex virus 2; Vero, acyclovir-resistant; relative to: CC50 over IC50).
`CC(C)(C)C(=O)OCOP(=O)(OCOC(=O)C(C)(C)C)C1CCCN(O)C1=O` (stereo not drawn) gave a log LC50 of > -4 log M (SK-OV-3).
With `O=C(O)CCCOc1ccc(O)cc1-c1cc(-c2ccccc2C(F)(F)F)n(-c2ccccc2)n1` the growth-inhibiting concentration was ≥ 2500 µg/plate (Salmonella typhimurium; Ames test; TA98; concentration not given, without S9 metabolic activation).
For `Fc1cccc(COc2ccc(Nc3ncnc4ccc(-c5cccc(N6CCNCC6)c5)cc34)cc2Cl)c1`, the selectivity ratio was 8.5 (Trypanosoma cruzi; NIH 3T3; relative to: NIH 3T3 TC50 over T. cruzi EC50).
`CS(C)(=O)=Nc1ccc(-c2ccc(-c3nc4cc(O[C@@H]5CO[C@H]6[C@@H]5OC[C@H]6O)[nH]c4cc3F)cc2)cc1` has an inhibition of 12% (CSNK1G1 (Homo sapiens, UniProt Q9HCP0); enzyme activity, inhibitor; 10 µM).
`COc1cc2nc(NC3CCN(Cc4ccc(C(N)=O)cc4)CC3)nc(Oc3c(C)cc(C#N)cc3C)c2cc1OC` gave a selectivity index of < 1 (HIV-1; MTT; MT4, RT L100I/V179D/Y181C mutant; relative to: CC50 over EC50).
`CC[C@H](C)[C@H](NC(=O)[C@H](CCCCN)NC(=O)[C@H](CCCCN)NC(=O)[C@H](Cc1ccccc1)NC(=O)[C@H](Cc1ccccc1)NC(=O)[C@H](CCCCN)NC(=O)[C@H](CCCCN)NC(=O)[C@H](Cc1ccccc1)NC(=O)[C@H](CCCNC(=N)N)NC(=O)[C@@H](N)CCCCN)C(=O)N[C@@H](CCCCN)C(=O)N[C@@H](CCCCN)C(=O)N[C@@H](CO)C(=O)N[C@H](C(=O)N[C@@H](CCCCN)C(=O)N[C@@H](CCCCN)C(=O)N[C@@H](CCCNC(=N)N)C(=O)N[C@H](C(=O)N[C@@H](CCCCN)C(=O)N[C@@H](CCCCN)C(=O)N[C@@H](CC(C)C)C(=O)N[C@@H](Cc1ccccc1)C(=O)N[C@@H](CCCCN)C(=O)N[C@@H](CCCCN)C(=O)N1CCC[C@H]1C(=O)N[C@@H](CCCNC(=N)N)C(=O)N[C@H](C(=O)N[C@H](C(=O)N1CCC[C@H]1C(=O)N[C@H](C(=O)N[C@@H](CO)C(=O)N[C@H](C(=O)N1CCC[C@H]1C(=O)N[C@@H](Cc1ccccc1)C(=O)O)[C@@H](C)CC)[C@@H](C)CC)[C@@H](C)CC)C(C)C)C(C)C)C(C)C` has an MIC of 4 µg/mL (≈ 0.948 µM) (Escherichia coli; E24; after heating at 37 °C).
`Fc1cccc(COc2ccc(Nc3ncnc4ccc(-c5cccc(CN6CCCCC6)c5)cc34)cc2Cl)c1` gave a selectivity ratio of 3 (Trypanosoma cruzi; NIH 3T3; relative to: NIH 3T3 TC50 over T. cruzi EC50).
`CC1(F)CN(C(=O)Cn2c(=O)c(C(=O)NCc3ccc(Cl)cc3)cc3nc(N4CCN(CCN)C4=O)cnc32)C1` has a selectivity ratio of > 105 (human cytomegalovirus; MRC-5, AD169-GFP; relative to: CC50 over EC50).
`O=C(c1cccc(-c2ccc3ncnc(Nc4ccc(OCc5cccc(F)c5)c(Cl)c4)c3c2)c1)N1CCOCC1` has a selectivity ratio of 1.5 (Trypanosoma cruzi; NIH 3T3; relative to: NIH 3T3 TC50 over T. cruzi EC50).
With `COc1ccccc1-c1n[nH]c2nc(N[C@H]3CC[C@H](NS(=O)(=O)CC(C)C)CC3)ncc12` the relative abundance was 0.84 (bead binding, competition bead pull-down, item: LMJF.30.2550; Leishmania donovani extract; 10 µM; relative to: vehicle).
For `O=S(=O)(c1ccc(-c2ccc3ncnc(Nc4ccc(OCc5cccc(F)c5)c(Cl)c4)c3c2)cc1)N1CCNCC1`, the selectivity ratio was 53.1 (Trypanosoma cruzi; NIH 3T3; relative to: NIH 3T3 TC50 over T. cruzi EC50).
The remaining activity of `O=C1NC(=O)c2c1c1cc(F)c[n+]3c1c1c2c2cc(O)ccc2[n]1[Ru-4]312([N]=C=S)[S+]3CC[S+]1CC[S+]2CC3` (stereo not drawn) is reported as 51% (MINK1 (Homo sapiens, UniProt Q8N4C8); enzyme activity; 100 nM, human enzyme, with: 10 µM ATP; relative to: untreated).

Some of these lines once more:
For `O=C1NC2(CC2)COc2ncc(F)cc2[C@H]2COCCN2c2ccn3ncc1c3n2`, the serum triglycerides was 0.34 ± 0.12 mmol/L (Sprague-Dawley rat, female, serum; oral, 2.5 mg/kg/day, end of recovery, 4-week subacute toxicity).
With `O=C(Oc1cc(OC(=O)c2cc(O)c(O)c(O)c2)c2ccccc2c1)c1cc(O)c(O)c(O)c1` the therapeutic index was 45.1 (Herpes simplex virus 2; Vero, acyclovir-resistant; relative to: CC50 over IC50).
`CC(C)(C)C(=O)OCOP(=O)(OCOC(=O)C(C)(C)C)C1CCCN(O)C1=O` (stereo not drawn) gave a log LC50 of > -4 log M (SK-OV-3).
